Results of several laboratories.
± gives the spread as reported.

`C=C(NC(=O)C(=C)NC(=O)c1csc(C2=NC3c4csc(n4)C4NC(=O)c5csc(n5)C(C(C)(O)C(C)O)NC(=O)C5CSC(=N5)C(=CC)NC(=O)C(C(C)O)NC(=O)c5csc(n5)C3(CC2)NC(=O)C(C)NC(=O)C(=C)NC(=O)C(=C)NC(=O)C(C(C)CC)NC2C=Cc3c(C(C)O)cc(nc3C2O)C(=O)OC4C)n1)C(N)=O` (centres unmarked) has an IC50 of 580 ± 30 nM (protein synthesis, coupled transcription-translation, item: luciferase; Escherichia coli S30 extract; 1 h, 37 °C).
`CC[C@H](C)[C@H](NC(=O)[C@H](Cc1ccc(O)cc1)NC(=O)[C@H](CCCCN)NC(=O)[C@H](CCCCN)NC(=O)[C@H](CCC(N)=O)NC(=O)[C@H](C)N)C(=O)N[C@@H](CO)C(=O)N[C@@H](Cc1ccc(O)cc1)C(=O)NCC(=O)N[C@@H](C)C(=O)N[C@@H](CCSC)C(=O)N[C@@H](CCCNC(=N)N)C(=O)N[C@@H](CCCNC(=N)N)C(=O)N[C@@H](CC(N)=O)C(=O)N[C@@H](CO)C(=O)N[C@H](C(=O)N1CCC[C@H]1C(=O)N[C@H]1CSSC[C@@H](C(=O)N[C@@H](CCC(N)=O)C(=O)N[C@@H](CCCNC(=N)N)C(=O)NCC(=O)N[C@@H](C)C(=O)N[C@@H](CCC(N)=O)C(=O)N[C@@H](C)C(=O)N[C@@H](CC(N)=O)C(=O)N2CCC[C@H]2C(=O)N[C@@H](Cc2ccc(O)cc2)C(=O)N[C@@H](CO)C(=O)N[C@@H](CCCNC(=N)N)C(=O)NCC(=O)N[C@H]2CSSC[C@@H](C(=O)N[C@@H](CCCNC(=N)N)C(=O)N[C@@H](CCCNC(=N)N)C(=O)O)NC(=O)[C@H](CCCNC(=N)N)NC(=O)[C@H]([C@@H](C)O)NC(=O)[C@H]([C@@H](C)CC)NC(=O)[C@H]([C@@H](C)O)NC(=O)[C@H](CO)NC2=O)NC(=O)[C@H](CC(N)=O)NC(=O)[C@H](Cc2ccc(O)cc2)NC(=O)[C@H](Cc2ccc(O)cc2)NC(=O)[C@H](CO)NC(=O)[C@H](C)NC(=O)CNC(=O)[C@H](CCCNC(=N)N)NC(=O)[C@H](CCCNC(=N)N)NC(=O)[C@H](CO)NC1=O)C(C)C`: “extracellular pH increase” 0.56 pH units (FITC/TRITC dextran ratio; Arabidopsis thaliana Col-0, root hairs; 5 µM, 6 min).
`CC[C@@](C)(NC)C(=O)NC(C)(C)C(=O)NC(C)(C)C(=O)NC(C)(C)C(=O)NCC(=O)NC(C)(C)C(=O)N1CCC[C@@H]1C(=O)N[C@@H](Cc1c[nH]c2ccccc12)C(=O)NC(C)(C)C(=O)N1C[C@H](O)C[C@@H]1C(=O)N[C@@H](C)C(=O)NC(C)(C)C(=O)NCCCC(=O)N[C@@H](CC(C)C)C(=O)N[C@](C)(CC)C(=O)NC(C)(C)C(=O)N[C@](C)(CC)C(=O)N[C@H](CO)Cc1ccccc1` has a dye leakage of about 60% (5-carboxyfluorescein release; POPG liposomes; 20 µg/mL, 30 min; baseline: Triton X-100 full leakage).
`CC[C@H](C)[C@H](NC(=O)[C@@H](NC(=O)[C@H](CC(=O)O)NC(C)=O)[C@@H](C)O)C(=O)N[C@@H](CCCNC(=N)N)C(=O)N[C@@H](CC(C)C)C(=O)N[C@@H](CC(C)C)C(=O)N[C@@H](Cc1ccccc1)C(=O)N[C@@H](CCC(N)=O)C(=O)N[C@@H](CC(C)C)C(=O)N[C@@H](CCSC)C(=O)N[C@@H](CCCNC(=N)N)C(=O)N1CCC[C@H]1C(=O)N1CCC[C@H]1C(=O)N[C@@H](CC(N)=O)C(=O)N[C@@H](CCSC)C(=O)N[C@H](C(=O)N1CCC[C@H]1C(=O)N[C@@H](C)C(=O)N[C@H](C(=O)N[C@@H](CC(N)=O)C(=O)N[C@@H](C)C(N)=O)C(C)C)[C@@H](C)O`: “α4β7− CCR9− cells” 28.6% (item: HA-29 tetramer; antigen-experienced tetramer+ CD4 T cells, healthy adults, HLA-DRB1*0101; dose not given).
For `CCOP(=O)(CC(=O)Nc1ccc(S(=O)(=O)N(CC(N)=O)c2ccc(N(CC(N)=O)S(=O)(=O)c3ccc(OC)cc3)c3ccccc23)cc1)OCC`, spontaneous alternation read “increased” (Y maze; APP/PS1 mice; intragastric, 40 mg/kg, 60 days, lentivirus intracerebroventricular; baseline: untreated APP/PS1).
`CC(C)C[C@@H]1NC(=O)[C@H](C(C)C)NC(=O)[C@H](CO)NC(=O)CNC(=O)CNC(=O)[C@H](CCCNC(=N)N)NC(=O)[C@@H]2CCCN2C(=O)[C@@H](NC(=O)CC[C@H](NC(=O)c2ccc(N(C)Cc3cnc4nc(N)nc(N)c4n3)cc2)C(=O)O)C(C)(C)SSC[C@@H](C(=O)O)NC(=O)CNC(=O)[C@H]([C@@H](C)O)NC(=O)[C@H](C(C)C)NC1=O`: “liver weight increase suppression” 30% (rat adjuvant arthritis; intravenous, 1 mg/kg once daily, day 14; baseline: arthritis vehicle).
The binding ratio of `NCCCC[C@H](NC(=O)CNC(=O)CNC(=O)[C@H](CCCCN)NC(=O)CNC(=O)CNC(=O)CNC(=O)[C@H](CCCCN)NC(=O)CNC(=O)CNC(=O)[C@H](CCCCN)NC(=O)CNC(=O)CNC(=O)CNC(=O)[C@H](CCCCN)NC(=O)CNC(=O)CNC(=O)[C@H](CCCCN)NC(=O)CNC(=O)CNC(=O)CNC(=O)[C@H](CCCCN)NC(=O)CNC(=O)CNC(=O)[C@H](CCCCN)NC(=O)[C@H](CO)NC(=O)[C@H](Cc1ccc(O)cc1)NC(=O)CNC(=O)CNC(=O)CN)C(=O)NCC(=O)O` is reported as 0.02 (rVλ6Wil fibrils; 1 h, room temperature, 0.05% Tween-20; baseline: 1 M NaCl over PBS).
With `CC[C@H](C)[C@@H]1NC(=O)[C@@H](NC(=O)CNC(=O)c2ccc(F)cc2)CSSC[C@@H]2NC(=O)[C@H](C)NC(=O)CNC(=O)[C@@H]3CCCN3C(=O)[C@@H]3CSSC[C@@H](C(=O)NCC(=O)O)NC(=O)[C@H](Cc4ccc(O)cc4)NC(=O)CNC(=O)[C@H](CC(N)=O)NC(=O)CNC(=O)[C@H](CCCNC(=N)N)NC(=O)[C@H](CSSC[C@H](NC(=O)[C@H](CCCNC(=N)N)NC(=O)[C@H](Cc4ccccc4)NC(=O)[C@H](CC(C)C)NC(=O)[C@H](CC(C)C)NC(=O)[C@H]([C@@H](C)O)NC(=O)CNC(=O)[C@H](CC(C)C)NC(=O)[C@H](CC(=O)O)NC(=O)[C@H]([C@@H](C)O)NC(=O)[C@H](CCCNC(=N)N)NC(=O)[C@H](CCSC)NC(=O)[C@H](CC(N)=O)NC(=O)[C@H](CC(C)C)NC1=O)C(=O)N[C@@H](CCCNC(=N)N)C(=O)N[C@@H](CCCNC(=N)N)C(=O)N[C@@H](CC(=O)O)C(=O)N[C@@H](CO)C(=O)N[C@@H](CC(=O)O)C(=O)N3)NC(=O)[C@H]([C@@H](C)CC)NC2=O` [fluorine-18 labelled] the tumour uptake was 2.2 ± 0.5 %ID/g (γ-counting; mouse, BxPC-3 xenograft (integrin αvβ6-positive), excised tumour; 0.5 h post injection).
Under tumour growth, `COc1ccc2sc3c(c2c1)SCCNC3=O` is recorded as “no effect” (mouse, CFPAC-1 xenograft; intravenous, 37.5 and 25 mg/kg/day, daily for 4 days).
For `CC(=O)N[C@@H](Cc1c[nH]c2ccccc12)C(=O)NCC(=O)N[C@@H](C)C(=O)N[C@H]1CSCC(=O)Nc2ccc(cc2)N=Nc2ccc(c(S(=O)(=O)O)c2)-c2ccc(cc2S(=O)(=O)O)N=Nc2ccc(cc2)NC(=O)CSC[C@@H](C(=O)N[C@@H](CCCNC(=N)N)C(=O)N[C@@H](CCC(=O)O)C(=O)N[C@@H](C)C(=O)N[C@@H](CCC(N)=O)C(N)=O)NC(=O)[C@H](C)NC(=O)[C@H](C)NC(=O)[C@H](CCC(=O)O)NC(=O)[C@H](CCCNC(=N)N)NC(=O)[C@H](C)NC(=O)[C@H](C)NC(=O)[C@H](C)NC(=O)[C@H](CCC(=O)O)NC(=O)[C@H](CCCNC(=N)N)NC(=O)[C@H](C)NC(=O)[C@H](C)NC(=O)[C@H](C)NC(=O)[C@H](CCC(=O)O)NC(=O)[C@H](CCCNC(=N)N)NC(=O)[C@H](C)NC(=O)[C@H](C)NC(=O)[C@H](C)NC(=O)[C@H](CCC(=O)O)NC1=O`, “thermal relaxation half-life” read 7.6 ± 0.2 min (cis-to-trans reversion, UV-Vis absorbance; 10 mM phosphate buffer; pH 7.0, 37 °C, together with: 365 nm irradiation).
`CC(C)C[C@@H]1NC(=O)[C@H](CS)NC(=O)[C@H](CCCCN)NC(=O)[C@H](CC(=O)O)N(C(=O)[C@@H](N)Cc2c[nH]c3ccccc23)CCCNC(=O)NCCCCN([C@@H](C)C(N)=O)C1=O` — result for “arthritis onset day”: “no effect” (DBA/1 mouse collagen-induced arthritis; intraperitoneal, 360 pg/g weekly; baseline: PBS).
The ED50 of `CC[C@H](C)[C@H](NC(=O)[C@H](CCC(=O)O)NC(=O)[C@H](Cc1ccc(I)cc1)NC(=O)[C@@H](C)NC(=O)[C@@H](N)Cc1ccc(O)cc1)C(=O)N[C@H](C(=O)NCC(N)=O)[C@@H](C)CC` is reported as 0.3 µg (analgesia, radiant heat tail flick; CD1 mouse; intracerebroventricular, 15 min).
`CC1=C(C(=O)Nc2ccc(C)cc2)C(c2ccccc2Br)NC(=S)N1` (centres unmarked) has an IC50 of 22.4 ± 1.83 µg/mL (contraction, calcium channel antagonist; isolated rat ileum; together with: K+ 80 mM).
Under JNK phosphorylation, `CC(C)C[C@H](NC(=O)[C@H](C)NC(=O)CNC(=O)[C@H](CO)NC(=O)CNC(=O)[C@H](CCCNC(=N)N)NC(=O)[C@H](CCCNC(=N)N)NC(=O)[C@H](CCCNC(=N)N)NC(=O)[C@H](CCC(N)=O)NC(=O)[C@H](CCCNC(=N)N)NC(=O)[C@H](CCCNC(=N)N)NC(=O)[C@H](CCCCN)NC(=O)[C@H](CCCCN)NC(=O)[C@H](CCCNC(=N)N)NC(=O)CNC(=O)[C@@H](N)Cc1ccc(O)cc1)C(=O)N[C@@H](CO)C(=O)N[C@H](C(=O)N[C@@H](CCC(=O)O)C(=O)N[C@@H](CCCNC(=N)N)C(=O)O)[C@@H](C)O` is recorded as “decreased” (isolated rat heart; concentration not given, ischemia/reperfusion).
The binding ratio of `C[C@@H](NC(=O)[C@@H](CCC(N)=O)NC(=O)[C@@H](C)NC(=O)[C@@H](CCCCN)NC(=O)[C@@H](CCC(N)=O)NC(=O)[C@@H](C)NC(=O)[C@@H](CCCCN)NC(=O)[C@@H](CCC(N)=O)NC(=O)[C@@H](C)NC(=O)[C@@H](CCC(N)=O)NC(=O)[C@@H](CCCCN)NC(=O)[C@@H](C)NC(=O)[C@@H](CCC(N)=O)NC(=O)[C@@H](CCCCN)NC(=O)[C@@H](C)NC(=O)[C@@H](CCC(N)=O)NC(=O)[C@@H](C)NC(=O)[C@@H](CCCCN)NC(=O)[C@@H](CCC(N)=O)NC(=O)[C@@H](C)NC(=O)[C@@H](CCCCN)NC(=O)[C@@H](CO)NC(=O)[C@@H](Cc1ccc(O)cc1)NC(=O)CNC(=O)CNC(=O)CN)C(=O)N[C@H](CCCCN)C(=O)N[C@H](CCC(N)=O)C(=O)N[C@H](C)C(=O)N[C@H](CCCCN)C(=O)N[C@H](CCC(N)=O)C(=O)O` is reported as 0.3 (human IAPP fibrils; 1 h, room temperature; baseline: 1 M NaCl over PBS).
For `Cc1ccc(/C=C/C(=O)O)cc1-c1cc2c(cc1C)C(C)(C)CCC2(C)C`, “log2 fold change” read -0.04 (RNA sequencing, item: Pdk4; rat, brain; dose not given, 24 h; baseline: vehicle).
The ED50 of `COC[C@@H](NC(C)=O)C(=O)NCc1ccc(OCc2cccc(OC(F)(F)F)c2)cc1` is reported as 12 mg/kg (maximal electroshock seizure test; mouse; ip, time of peak effect).

Some of these lines once more:
For `CC(=O)N[C@@H](Cc1c[nH]c2ccccc12)C(=O)NCC(=O)N[C@@H](C)C(=O)N[C@H]1CSCC(=O)Nc2ccc(cc2)N=Nc2ccc(c(S(=O)(=O)O)c2)-c2ccc(cc2S(=O)(=O)O)N=Nc2ccc(cc2)NC(=O)CSC[C@@H](C(=O)N[C@@H](CCCNC(=N)N)C(=O)N[C@@H](CCC(=O)O)C(=O)N[C@@H](C)C(=O)N[C@@H](CCC(N)=O)C(N)=O)NC(=O)[C@H](C)NC(=O)[C@H](C)NC(=O)[C@H](CCC(=O)O)NC(=O)[C@H](CCCNC(=N)N)NC(=O)[C@H](C)NC(=O)[C@H](C)NC(=O)[C@H](C)NC(=O)[C@H](CCC(=O)O)NC(=O)[C@H](CCCNC(=N)N)NC(=O)[C@H](C)NC(=O)[C@H](C)NC(=O)[C@H](C)NC(=O)[C@H](CCC(=O)O)NC(=O)[C@H](CCCNC(=N)N)NC(=O)[C@H](C)NC(=O)[C@H](C)NC(=O)[C@H](C)NC(=O)[C@H](CCC(=O)O)NC1=O`, “thermal relaxation half-life” read 7.6 ± 0.2 min (cis-to-trans reversion, UV-Vis absorbance; 10 mM phosphate buffer; pH 7.0, 37 °C, together with: 365 nm irradiation).
`CC(C)C[C@@H]1NC(=O)[C@H](CS)NC(=O)[C@H](CCCCN)NC(=O)[C@H](CC(=O)O)N(C(=O)[C@@H](N)Cc2c[nH]c3ccccc23)CCCNC(=O)NCCCCN([C@@H](C)C(N)=O)C1=O` — result for “arthritis onset day”: “no effect” (DBA/1 mouse collagen-induced arthritis; intraperitoneal, 360 pg/g weekly; baseline: PBS).
The ED50 of `CC[C@H](C)[C@H](NC(=O)[C@H](CCC(=O)O)NC(=O)[C@H](Cc1ccc(I)cc1)NC(=O)[C@@H](C)NC(=O)[C@@H](N)Cc1ccc(O)cc1)C(=O)N[C@H](C(=O)NCC(N)=O)[C@@H](C)CC` is reported as 0.3 µg (analgesia, radiant heat tail flick; CD1 mouse; intracerebroventricular, 15 min).
